Experimental data collected from several papers.
Parts stem from different laboratories: compare values within a part only.

Set 1
Target: Sal-like protein 4, full length isoform B (SALL4, Homo sapiens, UniProt Q9UJQ4-2, residues 1-616)
Method: universal PBM
Form: double-stranded DNA, one strand shown
Matrix: in vitro
Tested at: not given
Notes: 8-mer, flanks averaged, mean of replicates
Reading: higher = stronger binding
Target sequence (chain): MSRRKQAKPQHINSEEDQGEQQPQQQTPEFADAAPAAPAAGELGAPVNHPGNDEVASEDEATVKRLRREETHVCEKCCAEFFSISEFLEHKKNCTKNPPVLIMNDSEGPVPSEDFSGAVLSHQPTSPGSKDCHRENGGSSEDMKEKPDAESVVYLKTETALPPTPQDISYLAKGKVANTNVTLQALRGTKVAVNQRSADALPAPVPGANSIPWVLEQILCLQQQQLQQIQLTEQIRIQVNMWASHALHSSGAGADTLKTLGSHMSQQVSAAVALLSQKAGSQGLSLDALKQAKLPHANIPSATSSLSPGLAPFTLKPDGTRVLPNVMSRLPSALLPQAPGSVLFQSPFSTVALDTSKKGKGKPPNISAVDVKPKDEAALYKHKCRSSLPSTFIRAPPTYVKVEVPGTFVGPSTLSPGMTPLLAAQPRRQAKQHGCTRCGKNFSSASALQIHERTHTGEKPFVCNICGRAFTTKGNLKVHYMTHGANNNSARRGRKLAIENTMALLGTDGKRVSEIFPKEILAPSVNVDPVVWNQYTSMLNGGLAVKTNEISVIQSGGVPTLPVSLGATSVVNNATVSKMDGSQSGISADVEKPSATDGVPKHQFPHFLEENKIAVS
Oligonucleotide | E-score
GGCGTACA | -0.164
CGGGATAA | 0.0161
ATAGGCAC | 0.0862
AAAGGATA | 0.22
CGGTTAGC | -0.195
CCAGCGGC | -0.344
ACCGATTA | 0.0821
AAATTCCC | 0.143

Set 2
Target: Replicase polyprotein 1ab, nsp13 helicase (rep, Severe acute respiratory syndrome coronavirus 2, UniProt P0DTD1)
Action: inhibitor
Tested at: 20 µM
SMILES | inhibition [%]
NC(=O)N/N=C/c1ccc(Oc2ccc(F)cc2)cc1 | -3.78
CCOc1cc2ncc(C#N)c(Nc3ccc(OCc4ccccn4)c(Cl)c3)c2cc1NC(=O)/C=C/CN(C)C | 7.09
COc1cccc(OC)c1-c1cc(C(=O)NC2(C(=O)O)C3CC4CC(C3)CC2C4)nn1-c1ccnc2cc(Cl)ccc12 (centres unmarked) | 17.8
C[C@H](Cc1cc2c(c(C(N)=O)c1)N(CCCO)CC2)NCCOc1ccccc1OCC(F)(F)F | 3.83
O=C1NC(=O)C(c2cnc3ccccn23)=C1c1cn2c3c(cc(F)cc13)CN(C(=O)N1CCCCC1)CC2 | 11
FC(F)(F)c1cccc(-c2noc(-c3cc(-c4ccccc4)c(C(F)(F)F)s3)n2)c1 | 5.07
C=CCc1cccc(/C=N/NC(=O)CN2CCN(Cc3ccccc3)CC2)c1O | -0.25
CCN(CC)CCOC(=O)C(c1ccccc1)C1CCCCC1 (centres unmarked) | -29
CNC(=O)c1ccccc1Sc1ccc2c(/C=C/c3ccccn3)n[nH]c2c1 | -23.2
CCC(C)c1ccc(NC(=O)Cn2cnc3c2c(=O)n(C)c(=O)n3C)cc1 (centres unmarked) | 0.45
OC(CN1CCN(c2cccc(Cl)c2)CC1)C(c1ccccc1)c1ccccc1 (centres unmarked) | -5.17
CCCCC1=NC2(CCCC2)C(=O)N1Cc1ccc(-c2ccccc2-c2nnn[nH]2)cc1 | 11.8
Cc1cnc(Nc2ccc(F)cc2Cl)nc1-c1c[nH]c(C(=O)N[C@H](CO)c2cccc(Cl)c2)c1 | 11.7
N#Cc1cn([C@@H]2O[C@H](CO)[C@@H](O)[C@H]2O)c2ncnc(N)c12 | 1.46
CC1(C)OC(=O)C(OCC2CC2)=C1c1ccc(S(C)(=O)=O)cc1 | 5.58
OC[C@H]1O[C@H](O[C@H]2O[C@H](CO)[C@@H](O)[C@H](O)[C@H]2O)[C@H](O)[C@@H](O)[C@@H]1O | 0.01
CC(=O)SC[C@@H](C)C(=O)N1CCC[C@H]1C(=O)N[C@@H](Cc1ccccc1)C(=O)O | 1.67
NCCCCN | 1.21
COc1cccc(CN(C(=O)CC(C)(C)C)[C@H]2C[C@@H](C(=O)N3CCNCC3)N(Cc3ccc4c(c3)OCO4)C2)c1 | 4.85
COc1ccc(C2CC(c3c(O)cc(C)oc3=O)=NCCS2)c(OC)c1 (centres unmarked) | -7.04
C[C@H](CSC(=O)c1ccccc1)C(=O)N1C[C@@H](Sc2ccccc2)C[C@H]1C(=O)O | 4.69
C=CCOc1ccccc1OCC(O)CNC(C)C (centres unmarked) | -1.89
CCOC(=O)CN1CCN(C(=O)/C=C/c2cc(OC)c(OC)c(OC)c2)CC1 | 4.43
Cc1cccc(C)c1OCC(=O)N[C@@H](Cc1ccccc1)[C@@H](O)C[C@H](Cc1ccccc1)NC(=O)[C@H](C(C)C)N1CCCNC1=O | 10.8
O=C(O[C@H]1C[C@H]2CC[C@@H](C1)[N+]21CCCC1)C(O)(c1ccccc1)c1ccccc1 | -2.61

Set 3
Target: RNA binding protein fox-1 homolog 2, RRM domain, GST-SBP tag (RBFOX2, Homo sapiens, UniProt O43251-10, residues 100-194)
Method: RNA Bind-n-Seq
Form: RNA
Matrix: in vitro
Tested at: 365 nM
Notes: natural RNA segment, single round, ends assumed
Relative to: no-protein control
Reading: higher = stronger binding
Constant ends, left off below: GGGAGUUCUACAGUCCGACGAUC … UGGAAUUCUCGGGUGCCAA
Construct (chain): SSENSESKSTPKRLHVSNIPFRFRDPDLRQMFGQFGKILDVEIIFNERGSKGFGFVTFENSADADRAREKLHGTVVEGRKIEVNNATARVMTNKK
Oligonucleotide | RBNS enrichment (R)
GUACUCUUUCAAGUACGCAAGCUUUGACUUCACUACUUGCUGUAGCCUGUCCCCACUGUCUAUCCAGUGCUUACUUCAACCCUAGAGGCUGCCUUGACCCGAGGAGGCAU | 0.449
AAAGCAUCUACAUCAAUGUUUAUAAAGCAAUCAUUUGUGAACGCCGUGAUGCUGUUUUGUAACACAAACUGAUCUCCUUUAGUUCAGUUUGUCUCCUGUAAAUAGCGGCU | 0.226
AGGCUCCUUUCCCUAAGGAACCAUAGAAGAGAGGAAGAAAACAAAGGGCAUGUGUGAGGGAAGCUGCUUGGGUGGGUGUUAGGGCUAUGAAAUCUUGGAUUUGGGGCUGA | 2.46
UUUAUACAUCAGCUCCUUACUGCUUAUUAAUCUGUAUUGUACCCACGAUAUCAGGAGUGAAGCAGACGCUGGCCUUUCCAUGAAUAGCCACCACAUGGCCCAGCAUCUCU | 0.519
ACUGGGUAGCAGUCUGGCCCUCCUGUCGUCUGGUUGGUGUUGGGGCCUCCAGCCAGGGCCCUCUAGGGGAACCAAGCCUCUGCUCUCACCUGUGGGUUCUUGCCCAUCAG | 0.269
CAUAGGUACCCAGGAUAUUGUGUUCGGAGAAAUAGACCGAUGAGCGAAAGCACCACCCUCGAGCUGCCUUGCCUGUCAGCUGCUCCUUCGAGGCCUGUGUCUGGUGGGAG | 4.24
CCAUUCAUUGGCUAAUCCAUACAGCAAAUAUUUGAGUGUUUGUGAUAUGGCAGUAAAAAUGUGAUUACUUUGUAUGUACAUUAACCAAAACCAGUGAAGUUUGAUGGACU | 0.294
CCUGGAUGGCUUCUCUUGUCCACCCGAUCUCCCGUGUUACCAAUGUGUAUGGUCUCCUUCUCCCGAAAGUGUACUUAAUCUUUGCUUUCUUUGCACAAUGUCUUUGGUUG | 0.833

Set 4
Target: Replicase polyprotein 1ab, main protease (rep, Severe acute respiratory syndrome coronavirus 2, UniProt P0DTD1)
Observed: enzyme activity
Action: inhibitor
Tested at: 20 µM
Notes: with DTT
SMILES | inhibition [%]
C[C@@H]1O[C@@H](Oc2c(-c3cc(O)c(O)c(O)c3)oc3cc(O)cc(O)c3c2=O)[C@@H](O)[C@H](O)[C@H]1O | -10.3
NC(Cc1cc(O)c(O)cc1O)C(=O)O (centres unmarked) | 70
Nc1c[n+](N2CCOCC2)no1 | -14.9

Set 5
Target: Histone acetyltransferase KAT6A, winged helix 1, GST fusion (KAT6A, Homo sapiens, UniProt Q92794, residues 1-85)
Method: protein binding microarray
Form: double-stranded DNA, one strand shown
Matrix: in vitro
Tested at: not given
Notes: 8-mer, flanks averaged, mean of 2 arrays, mostly near background
Relative to: not given
Reading: higher = stronger binding
Residues (chain): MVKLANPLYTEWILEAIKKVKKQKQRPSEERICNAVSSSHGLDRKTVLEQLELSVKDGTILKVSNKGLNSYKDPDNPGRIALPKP
Oligonucleotide | E-score
AGTCTAGA | -0.22
TTGCCAAA | -0.115
CAACGTGC | -0.0462
TTTGCAAA | -0.296
GCTTGGAA | -0.13
CGGCGTGC | 0.367
CACGCGCC | 0.331
AATCACTG | -0.0948

Further values, each from its own experiment
Tested at: concentration not given
Relative to: vehicle
Structure (SMILES) | tested on | assay | setting | measurement | result
C[C@@H]1CCN(C(=O)CC#N)C[C@@H]1N(C)c1ncnc2[nH]ccc12.O=C(O)CC(O)(CC(=O)O)C(=O)O | Vesicular stomatitis virus | pseudovirus infection, FDA-approved drug library screen | SARS-CoV-2 spike pseudotype | GFP-positive cells | 77.8%
Nc1nc2[nH]cc(CCc3ccc(C(=O)N[C@@H](CCC(=O)O)C(=O)O)cc3)c2c(=O)[nH]1 | Vesicular stomatitis virus | pseudovirus infection, FDA-approved drug library screen | SARS-CoV-2 spike pseudotype | GFP-positive cells | 71.8%
CCCCCCCCc1ccc(CCC(N)(CO)CO)cc1.Cl | HEK-293T-ACE2 |  |  | cell number | 78.5%
CCC[C@H](NC(=O)[C@@H]1[C@H]2CCC[C@H]2CN1C(=O)[C@@H](NC(=O)[C@@H](NC(=O)c1cnccn1)C1CCCCC1)C(C)(C)C)C(=O)C(=O)NC1CC1 | HEK-293T-ACE2 |  |  | cell number | 101%
